Published values gathered from unrelated publications.
Numbered parts are unrelated; each lists some results of a single study. Positions count from the first letter of the parent shown.

Study 1
Target: CREBRF, bZIP domain (human)
Technique: DHFR protein complementation
Matrix: yeast
Setting: single substitutions, most at no-binding floor
Relative to: wild-type JUN-FOS pair
Reading: higher = stronger binding
Measurement: binding fitness
Starting sequence: JUN, bZIP domain (human); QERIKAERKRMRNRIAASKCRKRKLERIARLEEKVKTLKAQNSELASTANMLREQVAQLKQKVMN; partner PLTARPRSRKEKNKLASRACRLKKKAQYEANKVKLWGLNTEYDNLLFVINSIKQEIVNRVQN
A57W: -1.06 natural log
L52S: -1.6 natural log
S43R: -1.49 natural log
L52E: -1.41 natural log
E33S: -1.47 natural log
E44L: -1.36 natural log
L31S: -1.38 natural log
V56H: -1.6 natural log
Q41L: -1.48 natural log
L59A: -1.46 natural log
E54C: -1.54 natural log
R30F: -1.44 natural log
K39E: -1.48 natural log
L52I: -1.5 natural log
R53W: -1.52 natural log
V35W: -1.41 natural log
L45F: -1.54 natural log
T48E: -1.52 natural log
R30W: -1.53 natural log
T48G: -1.48 natural log
K39P: -1.51 natural log
T48W: -1.19 natural log
E44G: -1.4 natural log
K36E: -1.49 natural log

Study 2
Target: Histone acetyltransferase KAT6A, winged helix 1, GST fusion (KAT6A, Homo sapiens, UniProt Q92794, residues 1-85)
Technique: protein binding microarray
Form: double-stranded DNA, one strand shown
Matrix: in vitro
Concentration: not given
Setting: 8-mer, flanks averaged, mean of 2 arrays, mostly near background
Relative to: not given
Reading: higher = stronger binding
Measurement: E-score
Target sequence (chain): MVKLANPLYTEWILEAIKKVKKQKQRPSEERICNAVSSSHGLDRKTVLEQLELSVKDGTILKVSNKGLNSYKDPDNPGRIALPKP
CAACGATA: -0.0335
ATGGATGA: -0.12
AATGACGC: 0.0894
AACTTAAA: -0.194
ACCACTAA: -0.268
CAGGAGAG: -0.23
CACATATC: -0.0473
AGGGAAGG: -0.171
ATTGTGAC: -0.203
AAGTGGGA: -0.176
CCAAATGA: -0.21
ACTAGAGC: 0.0556
ACCCATAT: -0.101
TAACCTCA: -0.166
AAAAAGTG: -0.125
ATGGTGTC: -0.174
CATGCCCC: -0.0173
CCTACTCG: 0.059
AGGGAGAG: -0.152

Study 3
Target: Protein C-ets-1 (ETS1, Homo sapiens, UniProt P14921, residues 1-441, full length assumed)
Technique: protein-binding microarray
Form: double-stranded DNA, one strand shown
Matrix: in vitro
Concentration: not given
Setting: k-mer, scored over probes, only values ≥0.25
Reading: higher = stronger binding
Measurement: E-score
Target sequence (chain): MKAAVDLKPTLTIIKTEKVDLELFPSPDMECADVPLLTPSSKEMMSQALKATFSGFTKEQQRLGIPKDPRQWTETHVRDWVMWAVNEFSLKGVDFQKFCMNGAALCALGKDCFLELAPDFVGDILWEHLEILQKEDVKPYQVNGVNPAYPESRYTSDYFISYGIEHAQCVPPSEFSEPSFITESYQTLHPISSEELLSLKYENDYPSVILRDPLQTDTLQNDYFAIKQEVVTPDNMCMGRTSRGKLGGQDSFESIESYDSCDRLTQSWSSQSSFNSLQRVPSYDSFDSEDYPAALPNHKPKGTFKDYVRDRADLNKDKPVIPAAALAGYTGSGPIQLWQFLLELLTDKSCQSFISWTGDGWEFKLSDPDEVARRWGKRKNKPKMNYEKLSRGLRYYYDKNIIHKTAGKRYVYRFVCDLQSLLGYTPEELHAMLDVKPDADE
ACCGGATA: 0.486
GAAACGGA: 0.351
ACGGACGT: 0.406
CCGCTTCC: 0.443
ATCCGTCC: 0.363
ACGCGTCC: 0.315
GCATTTCC: 0.437
AAAAGGAA: 0.36
GGCGGAAA: 0.472
ATCGGATG: 0.433
CGGCGTCC: 0.298
GGATAGGA: 0.256
ACTCCGGA: 0.402
ATTTCCAG: 0.354
ACAGGATG: 0.473
GGATGTCA: 0.425
AATGCGGA: 0.311
GGCCGGAA: 0.484
CCCTTCCC: 0.333

Study 4
Target: CCNB1, cyclin fold, Cln2 fusion (human)
Technique: yeast growth competition, sequencing
Matrix: yeast
Setting: weak parent motif
Relative to: not given
Reading: higher = stronger binding
Measurement: normalised enrichment score
Starting sequence: BORA docking peptide (human); SSLRRKLFLDGNG
N12A: 1.24
K6A: 0.508
L9F: 0.625
R5K F8L: 0.24
R4A: 0.126
L9A: 0.287
S1A: 0.743
R5A L7A: -0.14
R5K: 0.466
F8A: 0.73
L7A: 0.123

Study 5
Target: Prothrombin, mature alpha-thrombin (F2, Homo sapiens, UniProt P00734)
Technique: aptamer microarray, sandwich
Form: DNA with 2'F-ANA
Matrix: in vitro
Concentration: 200 nM
Setting: whole 15-mer aptamer, many near background
With: Cy3 exosite-II aptamer, 400 nM
Reading: higher = stronger binding
Measurement: mean fluorescence intensity
Oligonucleotide: GGTTGGTGTGGTTGG
2'F-ANA at 1 4 7 8 9 11 13 14 15: 136 a.u.
2'F-ANA at 3 4 5 6 7 8 10 12 14 15: 52.1 a.u.
2'F-ANA at 1 2 4 8 9 10 13 14: 51.4 a.u.
2'F-ANA at 5 7 12 13: 115 a.u.
2'F-ANA at 3 6 8 10 14: 420 a.u.
2'F-ANA at 1 2 5 7 8 11 13 14: 48.1 a.u.
2'F-ANA at 1 2 3 4 8 9 13 14: 56.3 a.u.
2'F-ANA at 1 2 3 6 7 8 10 13 14 15: 52.9 a.u.
2'F-ANA at 2 3 5 12: 247 a.u.
2'F-ANA at 4 6 7 9 11 12 15: 342 a.u.
2'F-ANA at 1 2 5 6 11 13: 99.8 a.u.
2'F-ANA at 1 2 4 12 13 14 15: 58.7 a.u.
2'F-ANA at 2 3 6 7 12 13 14 15: 386 a.u.
2'F-ANA at 3 7 8 9 11 14 15: 690 a.u.
2'F-ANA at 1 4 5 6 8 9 12 13 15: 68.3 a.u.
2'F-ANA at 1 2 6 12 14 15: 61.5 a.u.
2'F-ANA at 3 7 8 10 13 14 15: 539 a.u.

Study 6
Target: RING finger protein unkempt homolog, zinc fingers 1-6, GST-SBP tag (UNK, Homo sapiens, UniProt Q9C0B0, residues 30-357)
Technique: RNA Bind-n-Seq
Form: RNA
Matrix: in vitro
Concentration: not given
Setting: RNA with constant flanks, human and mouse sites, ends assumed
Relative to: input RNA pool
Reading: higher = stronger binding
Measurement: bound/input enrichment
Constant ends, left off below: GGGAGUUCUACAGUCCGACGAUC … CAACAGAGGAUUGAGCAUCA
Residues (chain): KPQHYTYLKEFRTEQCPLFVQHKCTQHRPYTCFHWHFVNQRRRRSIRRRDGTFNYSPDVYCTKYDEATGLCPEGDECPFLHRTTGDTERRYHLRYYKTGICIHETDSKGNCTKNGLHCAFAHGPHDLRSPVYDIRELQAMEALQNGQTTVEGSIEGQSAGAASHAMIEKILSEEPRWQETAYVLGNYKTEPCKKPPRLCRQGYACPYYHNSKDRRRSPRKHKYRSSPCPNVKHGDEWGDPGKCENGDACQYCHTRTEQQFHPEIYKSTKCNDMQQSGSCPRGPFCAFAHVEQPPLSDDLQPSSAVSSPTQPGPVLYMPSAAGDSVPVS
UGGCGGUGGCCGCGGGGGCUGCGGUGGCGGCGGGCACAGCCCCUCUCAAACUGCCCCGUGUCUCCUACUACGGGGUGCCCAGCCUGGCCACCCUCAUCCCCGGCAUCCAGCAGAUGCCCU: 0.124 ratio
GAUACUCAAUGAGGAGCUUUUUUCCCCUCUUGGAACAGGUAAAAUGCUUUUUCUUAUUAAUAUAAUUAUAAAACAGUAUUUUAUGUAACAGCUAUUCCCAUAUUCUAGGAGUGGCCUAAG: 0.442 ratio
GCUUACAAAAUCAAAUACCCGGAGAACUUCUUUCUUCUAAGAGGAAACCAUGAGUGUGCUAGCAUCAAUCGCAUUUAUGGAUUCUACGAUGAGUGUAAACGAAGAUUUAAUAUUAAAUUG: 0.249 ratio
GAGGCCCUGCAGUGGCGUGAUUCCCUGGACAAACUCCUGCAGAACAACUAUGGACUUGCCAGUUUCAAAAGUUUCCUGAAGUCUGAAUUCAGUGAGGAAAACCUUGAGUUCUGGAUUGCC: 0.0461 ratio
UUAAUUGAUUUUCCUUUGGGGUUCCAGAUAAUAUUUUCUACAGAUUUUGAAAAAUGUAAUAAUAUUAAUGCAGUAUUGCAACAGGGGUGCAAUUUAAGGCUAUGUGAUAGAGGGUUAUUU: 0.759 ratio
UAUUACAUCACUGAACUAAAAUAUGGAGACAUCCUCAUUGAAAAUGGAGGGCACUCUAUCAGUCUAUAACUAUCAACGUAGUGCAACAGGGUGUUUUGAUACCUUUGUUUUCACCUCUUG: 0.203 ratio
AAGUGCUGGGAUCACUGUGUGCUACCACUUCCCACCCUAAUUUAAAGGGAAGCAAUUCUUCUGGUACCAUCUAAGCAGCCUCCUCUUCUACUUACAGCAGUGGGAUCCAACCAGCCUGAG: 0.254 ratio
GGACCCCGUACCCCUCAUAGGGUGCCGGGUCCCUGGGGCCCUCCUGAGCCUCUCCUGCUCUACAGGGCAGCCCCGCCAGCCUACGGAAGGGGGGGCGAGCUCCACCGAGGGUCCUUGUAC: 0.0998 ratio
GAGGAAAACUGAGCCAUCUGCCUGGAGUCAAGACACUGGAGAUGCUAAUACAAAUGGAAAAGACUGGGGAAGGAGUUGGAGUGACCGUUCAAUAUUUUCUGGCAUUGGUCUCAGAUGAUG: 0.541 ratio
GAAAAUUUGCAUGCAGCAGCUUACCGGAAUGCCUUGGCUAAUCCCUUGUAUUGUCCUGACUAUAGGAUUGGAAAAGUGACAUCAGAGGAGUUACAUUACUUCGUUCAGAACCAUUUCACA: 0.306 ratio
UGGAAUUCUAAUCUGAGUGGGCAUCUCCUGAGUGCAUCUGAUGACCAUACUGUCUGCCUGUGGGAUAUAAAUGCAGGACCAAAGGAAGGCAAAAUUGUGGAUGCUAAAGCAAUCUUUACU: 0.111 ratio

Study 7
Target: ABI1, truncated, D143A, DHFR fusion (Arabidopsis thaliana)
Technique: DHFR PCA, deep sequencing
Matrix: yeast
Setting: methotrexate growth selection, single substitutions
With: (+)-ABA 0 µM
Relative to: wild-type fitted maximum
Reading: higher = stronger binding
Measurement: relative binding score
Starting sequence: PYL1, truncated, DHFR fusion (Arabidopsis thaliana); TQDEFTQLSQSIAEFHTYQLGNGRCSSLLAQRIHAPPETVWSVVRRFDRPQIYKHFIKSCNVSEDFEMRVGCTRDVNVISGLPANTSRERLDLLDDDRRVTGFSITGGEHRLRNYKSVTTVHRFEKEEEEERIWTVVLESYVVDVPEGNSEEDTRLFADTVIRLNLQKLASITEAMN
H55C: 13.4%
I172H: -1.68%
T73Q: 1.92%
S171I: -0.747%
G108W: -1.91%
K54Q: 6.13%
I57M: 1.8%
V76T: -0.347%
E129Q: 15.7%
I79C: 31.8%
I79G: 1.7%
P37T: 7.15%
Q2R: 19.7%

For quick reference, copied from above (study 7):
I172H: -1.68%
V76T: -0.347%
I79C: 31.8%
Q2R: 19.7%
I79G: 1.7%
G108W: -1.91%
K54Q: 6.13%
H55C: 13.4%
E129Q: 15.7%
S171I: -0.747%
P37T: 7.15%
I57M: 1.8%
